Experimental data pooled from the literature.
Protocols differ between the studies behind these lines. “And” joins repeats or separate records; there may be more than shown. ± gives the spread as reported.
USP13 ZnF-UBD domain: Ubiquitin carboxyl-terminal hydrolase 13, ZnF-UBD domain (USP13, Homo sapiens, UniProt Q92995)
Sequence of UniProt Q92995 (whole entry, looked up): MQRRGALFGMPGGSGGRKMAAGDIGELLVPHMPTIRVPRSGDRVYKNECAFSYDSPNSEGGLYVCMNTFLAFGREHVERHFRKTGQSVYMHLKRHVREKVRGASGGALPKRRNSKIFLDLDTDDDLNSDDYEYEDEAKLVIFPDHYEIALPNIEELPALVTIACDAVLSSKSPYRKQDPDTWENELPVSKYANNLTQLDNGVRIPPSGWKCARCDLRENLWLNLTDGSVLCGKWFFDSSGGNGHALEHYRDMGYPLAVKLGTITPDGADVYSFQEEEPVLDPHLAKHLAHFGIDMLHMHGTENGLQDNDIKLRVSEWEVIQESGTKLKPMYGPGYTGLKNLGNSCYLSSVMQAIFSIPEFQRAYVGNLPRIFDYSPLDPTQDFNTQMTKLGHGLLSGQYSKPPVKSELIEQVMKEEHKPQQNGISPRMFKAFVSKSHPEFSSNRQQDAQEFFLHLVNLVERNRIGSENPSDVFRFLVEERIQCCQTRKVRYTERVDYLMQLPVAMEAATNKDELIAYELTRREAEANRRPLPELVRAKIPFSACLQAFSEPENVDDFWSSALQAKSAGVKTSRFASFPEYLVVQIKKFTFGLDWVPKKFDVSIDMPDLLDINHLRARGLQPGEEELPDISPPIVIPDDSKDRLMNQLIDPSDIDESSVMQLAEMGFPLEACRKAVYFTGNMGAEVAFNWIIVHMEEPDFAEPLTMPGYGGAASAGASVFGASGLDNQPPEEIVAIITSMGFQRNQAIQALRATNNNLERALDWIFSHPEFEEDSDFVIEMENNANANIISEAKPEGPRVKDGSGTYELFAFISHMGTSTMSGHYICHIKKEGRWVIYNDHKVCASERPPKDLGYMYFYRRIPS
CYP3A4: Cytochrome P450 3A4 (CYP3A4, Homo sapiens, UniProt P08684)
Sequence of UniProt P08684 (whole entry, looked up): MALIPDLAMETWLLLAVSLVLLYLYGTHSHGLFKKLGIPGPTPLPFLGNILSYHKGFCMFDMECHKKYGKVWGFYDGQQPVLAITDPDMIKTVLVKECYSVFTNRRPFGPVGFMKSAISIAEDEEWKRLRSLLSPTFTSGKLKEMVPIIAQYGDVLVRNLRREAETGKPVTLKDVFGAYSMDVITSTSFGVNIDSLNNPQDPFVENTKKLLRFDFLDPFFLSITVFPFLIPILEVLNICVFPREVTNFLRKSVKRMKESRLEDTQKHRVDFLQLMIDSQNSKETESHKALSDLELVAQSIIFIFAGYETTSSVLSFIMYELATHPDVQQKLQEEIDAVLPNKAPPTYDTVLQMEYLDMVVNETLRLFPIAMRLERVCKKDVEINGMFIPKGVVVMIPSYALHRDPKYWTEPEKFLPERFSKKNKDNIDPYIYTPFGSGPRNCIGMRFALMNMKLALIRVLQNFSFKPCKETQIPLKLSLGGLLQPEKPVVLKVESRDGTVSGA
Sequence of UniProt O70423 (whole entry, looked up): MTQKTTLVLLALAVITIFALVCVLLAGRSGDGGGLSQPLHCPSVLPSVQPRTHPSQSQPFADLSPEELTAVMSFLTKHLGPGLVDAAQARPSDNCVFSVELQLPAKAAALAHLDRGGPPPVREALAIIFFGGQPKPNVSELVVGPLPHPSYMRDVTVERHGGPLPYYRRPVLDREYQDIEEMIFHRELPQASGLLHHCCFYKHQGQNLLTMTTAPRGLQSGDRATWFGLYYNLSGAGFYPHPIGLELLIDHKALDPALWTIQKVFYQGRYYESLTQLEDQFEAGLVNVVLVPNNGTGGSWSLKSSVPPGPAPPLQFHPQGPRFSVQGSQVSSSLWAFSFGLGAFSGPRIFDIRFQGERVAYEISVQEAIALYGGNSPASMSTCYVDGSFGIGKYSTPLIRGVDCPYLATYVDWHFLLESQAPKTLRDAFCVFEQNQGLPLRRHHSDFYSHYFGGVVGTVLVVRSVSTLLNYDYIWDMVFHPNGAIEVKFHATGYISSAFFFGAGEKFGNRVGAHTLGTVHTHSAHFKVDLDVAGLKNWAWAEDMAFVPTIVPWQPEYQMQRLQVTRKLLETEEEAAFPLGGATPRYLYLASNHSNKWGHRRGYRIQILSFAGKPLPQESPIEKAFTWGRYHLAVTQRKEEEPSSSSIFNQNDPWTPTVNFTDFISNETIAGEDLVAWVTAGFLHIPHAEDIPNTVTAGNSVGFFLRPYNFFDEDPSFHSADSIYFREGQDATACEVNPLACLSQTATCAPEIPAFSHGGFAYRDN

Compound	tested on	test	system	conditions	scale	quantity	value
O=C(CCc1ccc(O)cc1)c1c(O)cc(O)cc1O[C@@H]1O[C@H](CO)[C@@H](O)[C@H](O)[C@H]1O	Caco-2 monolayers	apical to basolateral transport	–	100 µg/mL, 2 h	–	amount transported	2.33 ± 0.2%
COc1cc(/C=C/C=C2\SC(=S)NC2=O)cc(OC)c1O	HEK-293T	CellTiter-Glo	–	2.5 µM, 24 h, unit not given	relative to: untreated	viability	0.987 and 1.05
O=C(C[C@@H](C(F)F)n1ccc(F)n1)N1CCC(O)(Cn2cnc3c(cnn3-c3ccc(F)cc3)c2=O)CC1	CAPAN-1 parental	SRB	–	20 µM, 5 days	–	viability	22.3% and 26.3%
Cc1cc(Nc2ccc(S(F)(F)(F)(F)F)cc2)n2nc(C(C)(F)F)nc2n1	Plasmodium vivax	–	human Plasmodium vivax malaria patients	oral, 800 mg	–	patients with any adverse event	85.7%
NC1(C(=O)N[C@@H](CCO)c2ccc(Cl)cc2)CCN(c2nc[nH]c3nccc2-3)CC1	–	–	metastatic CRPC patients	480 mg b.i.d., any grade, treatment-related, together with: enzalutamide 160 mg daily	–	incidence of decreased appetite	60%
O=C(O)[C@H]1O[C@@H](Oc2cc3oc(-c4ccccc4)cc(=O)c3c(O)c2O)[C@H](O)[C@@H](O)[C@@H]1O	Caco-2 monolayers	–	–	100 µg/mL, 2 h	relative to: Papp(BL-AP) over Papp(AP-BL)	efflux ratio	0.29
O=C(O)CCc1ccc2c(c1)OCO2	USP13 ZnF-UBD domain	–	–	–	–	Kd	> 1000 µM
Cc1cc(Nc2ncnc3ccc(NC4=NC(C)(C)CO4)cc23)ccc1Oc1ccn2ncnc2c1	CYP3A4	–	human, plasma	oral, 300 mg, day 1, single dose alone	–	Cmax, mean	511 ng/mL
O=c1cc(-c2ccc(O)c(O)c2)oc2cc(O)cc(O)c12	Caco-2 monolayers	apical to basolateral transport	–	100 µg/mL, 2 h	–	amount transported	5.62 ± 0.03%
O=C1C(Br)=C(Br)C(=O)c2ccccc21	Eruca sativa	–	seeds	200 µg/mL, 168 h, 10% DMSO	–	germination inhibition	94.1%
C[C@@H]1O[C@@H](OC[C@H]2O[C@@H](Oc3c(-c4ccc(OCCO)c(OCCO)c4)oc4cc(OCCO)cc(O)c4c3=O)[C@H](O)[C@@H](O)[C@@H]2O)[C@H](O)[C@H](O)[C@H]1O	Caco-2 monolayers	–	–	100 µg/mL, 2 h	relative to: Papp(BL-AP) over Papp(AP-BL)	efflux ratio	0.43 ± 0.1
COc1cccc(-c2n[nH]c(SCc3ccccn3)n2)c1OC	primary human lymphocytes	–	–	0.25 mg/mL, 20 h	–	structural aberrations per 100 cells	1.5
CCc1cc(C(=O)NC)c2nccc(N3CCc4c(cc(Cn5ccnc5)cc4-c4cn(C)nc4C(F)(F)F)C3=O)c2c1	–	–	Sprague Dawley rats	oral, 100 mg/kg twice daily, 7 days	–	serum GGT activity	0.8 ± 0.5 U/L
Cn1cc(-c2ccc(-c3cncc(Cl)c3N3CCC4(CCNC4=O)CC3)cc2)cn1	COLO 205	microarray, refers to: KITLG	–	concentration not given, 2 h, gene set MGF	relative to: untreated cells	fold change in expression	1.54
NCc1cc2c(cc1F)C(=O)N(C1CCC(=O)NC1=O)C2 (stereo not drawn)	Amine oxidase [copper-containing] 3 (Mus musculus, UniProt O70423)	substrate, LC-MS/MS	recombinant mouse enzyme	10 µM, 0 h, pH 7.4	–	concentration	12.7 µM
O=C(O)CCC(=O)Nc1cccc2ccccc12	USP13 ZnF-UBD domain	–	–	–	–	Kd	> 1000 µM
COc1ccc(-c2coc3cc(O)cc(O)c3c2=O)cc1	Caco-2 monolayers	–	–	100 µg/mL, 2 h, basolateral to apical	–	amount transported	16.7 ± 0.1%
CC[C@H]1[C@@H](O)[C@@H]2[C@H](CC[C@]3(C)[C@@H]([C@H](C)CCNC(=O)NS(=O)(=O)c4ccc(C(C)(C)C)cc4)CC[C@@H]23)[C@@]2(C)CC[C@@H](O)C[C@@H]12	CYP3A4	–	human, plasma	dose not given, mean, together with: fluconazole	–	AUC(0-inf)	1660 ng·h/mL

Repeated from above:
Compound	tested on	test	system	conditions	scale	quantity	value
O=C(CCc1ccc(O)cc1)c1c(O)cc(O)cc1O[C@@H]1O[C@H](CO)[C@@H](O)[C@H](O)[C@H]1O	Caco-2 monolayers	apical to basolateral transport	–	100 µg/mL, 2 h	–	amount transported	2.33 ± 0.2%
COc1cc(/C=C/C=C2\SC(=S)NC2=O)cc(OC)c1O	HEK-293T	CellTiter-Glo	–	2.5 µM, 24 h, unit not given	relative to: untreated	viability	0.987 and 1.05
